Results of several laboratories.
Every numbered part comes from another study and shows a few of its results, in no order.

Study 1
Organism: Sarcocystis neurona
Effect on: parasite growth
Concentration: 10 µM
Time: 96 h
Setting: second screen
Baseline: untreated
| SMILES | log2 fold change |
| --- | --- |
| CC1(C)S[C@@H]2[C@H](NC(=O)[C@H](N)c3ccccc3)C(=O)N2[C@H]1C(=O)O | 0.26 |
| CCOc1cc(CC(=O)N[C@@H](CC(C)C)c2ccccc2N2CCCCC2)ccc1C(=O)O | 0.52 |
| CCN(CC)CCOC(=O)c1ccc(N)cc1 | 0.07 |
| C[C@H]1O[C@H](O[C@H]2[C@H](O)[C@@H](O)[C@@H](O[C@H]3[C@H](O)[C@@H](O)C(O)O[C@@H]3CO)O[C@@H]2CO)[C@H](O)[C@@H](O)[C@@H]1N[C@H]1C=C(CO)[C@@H](O)[C@H](O)[C@H]1O (stereo partly drawn) | 0.32 |
| CCCCN1CCCC1CNC(=O)c1cc(C#N)c2ccccc2c1OC (stereo not drawn) | 0.41 |

Study 2
Host: human
Medium: microsomes or S9
Concentration: 2 µM
Time: 0.5 h
| Structure (SMILES) | remaining compound [%] |
| --- | --- |
| COC(=O)C1(C(=O)OC)C[C@@H](c2ccccc2)c2ccc(N(C)C)cc2[C@@H]1CC(=O)C(C)(C)C | 1.22 |
| COCCc1noc(C(C)n2ccnc2-c2cc(F)cc(F)c2)n1 (stereo not drawn) | 84.5 |
| CCOCCOC(=O)C(C)Oc1ccc(Oc2ncc(Cl)cc2Cl)cc1 (stereo not drawn) | 0.0908 |
| COc1ccccc1CNC(=O)c1c(OCC2CC2)cc(=O)n2c1CCCCC2 | 2.12 |
| Cc1cnn(C2CCCC2)c1NC(=O)N1CCC[C@H]1c1nc(C(C)C)no1 | 40.7 |
| CC(=O)Nc1ccc(S(=O)(=O)N[C@H](C(=O)O)C2CCCCC2)cc1 | > 100 |
| Cc1nc(N2CCN(c3ccccn3)CC2)nc2c1C(=O)CC(c1cccc(Cl)c1)C2 (stereo not drawn) | 54.4 |
| CC(C)C[C@@H]1N/C(=N/c2ccccc2)N(c2ccccc2)C1=O | 77.9 |
| CCOc1cc(=O)n2c(c1C(=O)Nc1ccc3c(c1)OCO3)CCCC2 | 97.7 |
| CN(C)S(=O)(=O)CCc1cn([C@@H]2CCc3c(F)cccc32)nn1 | 90.3 |

Study 3
Cell line: A-375
Concentration: 100 µM
Time: 36 h
| SMILES | viability |
| --- | --- |
| Cc1cc(=O)oc2cc(O)ccc12 | 88.8% |
| Cc1ccc(O)cc1 | 109% |
| CC(C)[C@H](N)C(=O)OCCOCn1cnc2c(=O)[nH]c(N)nc21 | 119% |
| CC(C)[N+](C)(CCOC(=O)C1c2ccccc2Oc2ccccc21)C(C)C | 98.7% |
| CC[C@@H]([C@H](C)O)n1ncn(-c2ccc(N3CCN(c4ccc(OC[C@@H]5CO[C@@](Cn6cncn6)(c6ccc(F)cc6F)C5)cc4)CC3)cc2)c1=O | 61% |
| CC(C)NCC(O)COc1cccc2[nH]c3ccccc3c12 (stereo not drawn) | 4.23% |
| CNC(=O)c1c(C)oc2cc(Oc3ncnc4cc(OC)c(OC)cc34)ccc12 | 102% |
| CC1(C)C[C@@H]1C(=O)N/C(=C\CCCCSC[C@H](N)C(=O)O)C(=O)O | 108% |

Single results of other studies
| SMILES | cell line | time | endpoint | result |
| --- | --- | --- | --- | --- |
| CN(C)CC#Cc1ccc(OCCCc2sc(N3CCc4cccc(C(=O)Nc5nc6ccccc6s5)c4C3)nc2C(=O)O)c(F)c1 | colorectal cancer organoids | 4 days | IC50 | 20 to 110 nM |
